Measurements pooled from the literature.
± gives the spread as reported.
Fibroin-modulator-binding protein-1: Fibroin-modulator-binding protein-1 99-193 (Bombyx mori, UniProt Q5FBS0)

ALMQWVTQV
reporter activation (Jurkat T cells expressing 1G4 TCR; NFAT-eGFP reporter, fluorescence microscopy; peptide; concentration not given, HLA-A*02:01 NY-ESO system): 24.1%

MTVCNASQRQAHAQATAVSL
selectivity ratio (H2347; phage binding; peptide; relative to: targeting over control phage): 0.67 ± 0.31

PMESGICTIV
binding intensity (human SCRIB PDZ3-4 tandem (MBP fusion); automated holdup; peptide, crude extract; concentration not given, uncorrected, unit not given; relative to: biotin control resin, higher = stronger binding): 0.111

thimet oligopeptidase
co-IP enrichment (co-immunoprecipitation; human RBC membrane; DSSO crosslinker, unit not given, with: Band 3 peptide 1-56 bait; relative to: negative control): 0

SLMQWVTQV
reporter activation (Jurkat T cells expressing 1G4 TCR; NFAT-eGFP reporter, flow cytometry; peptide; concentration not given, HLA-A*02:01 NY-ESO system): 77.3%

hemoglobin alpha
co-IP enrichment (co-immunoprecipitation; human RBC membrane; unit not given, with: Band 3 peptide 1-56 bait; relative to: negative control): 0.161

colistin
MIC (Pseudomonas aeruginosa; broth microdilution; clinical isolate RKI-No_497/15): 1 µg/mL

epoetin alfa
mRNA fold induction (UT7/EPO; RT-qPCR, item: AREG; concentration not given, 90 min; relative to: vehicle): 2.6 fold

GSGAGKETSF
binding intensity (human MAGI1-3/6 PDZ construct (MBP fusion); automated holdup; peptide, purified PDZ protein; concentration not given, unit not given; relative to: biotin control resin, higher = stronger binding): 0.0399

RLAQWISQA
reporter activation (Jurkat T cells expressing 1G4 TCR; NFAT-eGFP reporter, flow cytometry; peptide; concentration not given, HLA-A*02:01 NY-ESO system): 21.6%

human serum albumin
co-IP enrichment (co-immunoprecipitation; human RBC cytosol; DSSO crosslinker, unit not given, with: Band 3 peptide 1-56 bait; relative to: negative control): 127

Peginesatide
phosphorylation level (UT7/EPO; tyrosine phosphorylation, LC-MS/MS phosphoproteomics, GluC, item: CD33 tyrosine 340; 10 nM, 15 min, with: 10 U/mL EPO; relative to: vehicle): 3.4 fold

TQLMPFGSLL
binding score (HLA class I histocompatibility antigen, A alpha chain, allele A*02:01 (Homo sapiens, UniProt P04439); conformational ELISA; peptide; concentration not given; relative to: positive control peptide, direction not given): 7.9%

GSGAGSETVV
binding intensity (human MAGI1-2/6 PDZ construct (MBP fusion); automated holdup; peptide, crude extract; concentration not given, corrected by standard peak, unit not given; relative to: biotin control resin, higher = stronger binding): 0.2

WLGQWIARL
reporter activation (Jurkat T cells expressing 1G4 TCR; NFAT-eGFP reporter, flow cytometry; peptide; concentration not given, HLA-A*02:01 NY-ESO system): 0.18%

ATGCATGCATGC (dsDNA)
Kd (Fibroin-modulator-binding protein-1; ITC; double-stranded DNA, one strand shown): 1590 ± 150 nM

QDEKVKESYV
normalised SPR binding response (human MAGI1-3/6 PDZ construct (MBP fusion); surface plasmon resonance; peptide; concentration not given; higher = stronger binding): 102 normalised RU

CLTSTVQLIM
binding score (HLA class I histocompatibility antigen, A alpha chain, allele A*01:01 (Homo sapiens, UniProt P04439); conformational ELISA; peptide; concentration not given; relative to: positive control peptide, direction not given): 4.7%

GSGAGKETRV
binding intensity (human MAGI1-2/6 PDZ construct (MBP fusion); automated holdup; peptide, crude extract; concentration not given, uncorrected, unit not given; relative to: biotin control resin, higher = stronger binding): 0.422

CTAGCTAGCTAG (dsDNA)
Kd (Fibroin-modulator-binding protein-1; ITC; double-stranded DNA, one strand shown): 3730 ± 180 nM

CCT3
co-IP enrichment (co-immunoprecipitation; human RBC cytosol; DMTMM crosslinker, unit not given, with: Band 3 peptide 1-56 bait; relative to: negative control): 22500

SVWLRKETRV
binding intensity (human SCRIB PDZ3-4 tandem (MBP fusion); automated holdup; peptide, crude extract; concentration not given, uncorrected, unit not given; relative to: biotin control resin, higher = stronger binding): 0.711

GLLQWVSMV
reporter activation (Jurkat T cells expressing 1G4 TCR; NFAT-eGFP reporter, flow cytometry; peptide; concentration not given, HLA-A*02:01 NY-ESO system): 0.24%

GSGAGSETKM
binding intensity (human MAGI1-2/6 PDZ construct (MBP fusion); automated holdup; peptide, crude extract; concentration not given, corrected by standard peak, unit not given; relative to: biotin control resin, higher = stronger binding): -0.0591

GGLQWIPRA
reporter activation (Jurkat T cells expressing 1G4 TCR; NFAT-eGFP reporter, fluorescence microscopy; peptide; concentration not given, HLA-A*02:01 NY-ESO system): 0.0126%
